Measurements gathered from unrelated publications.
Compare with care: the assays were run in different laboratories. Values joined by “and” are separate records of one study, mostly repeats; a detail may differ. Numbers after ± are the reported error.

With C=CC(=O)Nc1cc(Nc2nccc(-c3cn(C)c4ccccc34)n2)c(OC)cc1N(C)CCNC the remaining compound was 59.7% (human, plasma; 10 d, on ice, high QC level).
For C/C(N)=N/C(=N\S(=O)(=O)c1ccc(C(F)(F)F)cc1)N1C[C@H](c2ccccc2)C(c2ccc(Cl)cc2)=N1, the Tmax was 4 h (cynomolgus monkey, female, plasma; oral, 18 mg/kg).
The oral bioavailability of CC(=O)N1CCC=C(c2cc3c(Nc4cc5ncsc5cc4F)ncnc3s2)C1 is reported as 19.4% (BALB/c mouse).
The tissue uptake of CN(CCCO)Cc1ccc(-c2noc(-c3ccc(OCC[18F])c(C(F)(F)F)c3)n2)cc1F is reported as 1.9 ± 0.32 %ID/g (Sprague-Dawley rats, male, spleen; 5 min post-injection).
The urine pH of CC(C)[C@H](NC(=O)[C@H](Cc1c[nH]c2ccccc12)NC(=O)[C@H](CCCNC(=N)N)NC(=O)[C@H](CCCNC(=N)N)NC(=O)[C@@H](NC(=O)[C@@H](NC(=O)[C@H](CCCNC(=N)N)NC(=O)[C@@H](NC(=O)[C@@H](NC(=O)[C@H](CCCNC(=N)N)NC(=O)[C@H](CCCNC(=N)N)NC(=O)[C@@H](NC(=O)[C@H](Cc1c[nH]c2ccccc12)NC(=O)[C@H](CCCNC(=N)N)NC(=O)[C@H](CCCNC(=N)N)NC(=O)[C@@H](NC(=O)[C@H](CCCNC(=N)N)NC(=O)[C@H](CCCNC(=N)N)NC(=O)[C@@H](NC(=O)[C@H](Cc1c[nH]c2ccccc12)NC(=O)[C@H](CCCNC(=N)N)NC(=O)[C@@H](N)CCCNC(=N)N)C(C)C)C(C)C)C(C)C)C(C)C)C(C)C)C(C)C)C(C)C)C(=O)N[C@@H](CCCNC(=N)N)C(=O)N[C@@H](CCCNC(=N)N)C(=O)O is reported as 6 (dipstick; CD1 mouse, urine; intravenous, 15 mg/kg, 16 h, [14C]-labelled compound).
For CS(=O)(=O)c1cc(Cl)cc(-c2cc(Cl)c(Cl)cc2Cl)c1Cl, “milk fat partition ratio” read 226 (cow whole milk; 500 nM; baseline: milk fat over skim milk).
With CCc1cnc(NC(=O)c2cc(S(=O)(=O)N3CCOCC3)ccc2N(C)C2CCCC2)s1 the haematocrit was 48.7% (mouse; 10 mg/kg, 3 doses).
For COc1cccc(OC)c1-c1cc(C(=O)NC2(C(=O)O)C3CC4CC(C3)CC2C4)nn1-c1ccc(C(=O)NCCNC(=O)[C@H](CCCCNC(=O)[C@H](CC(C)C)NC(=O)C2OC2C(=O)O)NC(=O)CN2CCN(CC(=O)[O-])CCN(CC(=O)[O-])CCN(CC(=O)[O-])CC2)cc1C(C)C.[177Lu+3] (mixture of isomers), the tumour-to-heart ratio was 19 (mouse, HT-29 xenograft; 24 h post injection, biodistribution; baseline: tumour over heart uptake).
For COc1ccc(Nc2nc(Nc3ccc(OCCOCC[18F])cc3)ncc2Br)cc1, the uptake ratio was 1.67 (ICR mice, S180 tumour; intravenous, 370 kBq, 120 min; baseline: tumour over blood).
For CN(O)C(=O)CCC(=O)NCCCN(CCCCN(CCCNC(=O)CCC(=O)N(C)O)C(=O)CCC(=O)N(C)O)C(=O)CCC(=O)N(C)O.[89Zr], the intact complex was 99 ± 0.7% (radio-TLC; aqueous buffer; 7 d, pH 7.2, 37 °C, 89Zr-labelled complex, added: CoCl2 10-fold excess).
Cc1cc(-c2ccc(C(=O)[C@@H]3CCCC[C@H]3C(=O)Nc3cnn4c3C(=O)NCC4)cc2)[nH]n1 — result for “recovery of radioactivity”: 5.62% and 6.8% and 4.93% and 6.73% and 4.97% and 6.33% (human, urine; oral, 200 mg; baseline: dose).
For C#CCNC(=O)C(CC(C)(C)F)NC(c1ccc(-c2ccc(S(C)(=O)=O)cc2)cc1)C(F)(F)F (stereo not drawn), “cysteine adduct formation” read under 1% (PBS; 100 µM, 23 h, pH 8, 37 °C, added: cysteine 10 mM).
The plasma concentration of CC(=O)N[C@H](CC(=O)O)C(=O)N[C@H](Cc1c[nH]c2ccccc12)C(=O)N[C@H](Cc1ccccc1)C(=O)N[C@H](CCCCN)C(=O)N[C@H](C)C(=O)N[C@H](Cc1ccccc1)C(=O)N[C@H](Cc1ccc(O)cc1)C(=O)N[C@H](CC(=O)O)C(=O)N[C@H](CCCCN)C(=O)N[C@@H](C(=O)N[C@H](C)C(=O)N[C@H](CCC(=O)O)C(=O)N[C@H](CCCCN)C(=O)N[C@H](Cc1ccccc1)C(=O)N[C@H](CCCCN)C(=O)N[C@H](CCC(=O)O)C(=O)N[C@H](C)C(=O)N[C@H](Cc1ccccc1)C(N)=O)C(C)C is reported as 68 ng/mL (human, plasma; oral, dose not given, 2 h post-dose, day 13).
For CCCC[C@H](OC(C)=O)c1ccccc1C(=O)O, the Vss was 2.89 ± 1.57 L/kg (Sprague-Dawley rats, both sexes, whole blood; intravenous, 1.25 mg/kg single dose).
C[C@H](CCC(=O)NCC(=O)O)[C@H]1CC[C@H]2[C@@H]3[C@H](O)C[C@@H]4C[C@H](OS(=O)(=O)O)CC[C@]4(C)[C@H]3CC[C@]12C gave a Cmin of 22.7 ± 8.3 nM (human, plasma; baseline).
COc1cccc(OC)c1-c1cc(C(=O)NC2(C(=O)O)C3CC4CC(C3)CC2C4)nn1-c1ccc(C(=O)N(C)CCOCCOCCN(C)C(=O)[C@H](CCCCNC(=O)[C@H](CC(C)C)NC(=O)C2OC2C(=O)O)NC(=O)CN2CCN(CC(=O)[O-])CCN(CC(=O)[O-])CCN(CC(=O)[O-])CC2)cc1C(C)C.[177Lu+3] (mixture of isomers) has a tumour-to-heart ratio of 2.96 (mouse, HT-29 xenograft; 4 h post injection, biodistribution; baseline: tumour over heart uptake).
With CC(=O)c1c(C)c2cnc(Nc3ccc(N4CCNCC4)cn3)nc2n(C2CCCC2)c1=O the AUC(0-t) was 46300 ng·h/mL (G-Smo medulloblastoma mice (hGFAP-Cre x SmoM2), forebrain; intraperitoneal, 25 mg/kg single, dosed at postnatal day P10).
With CCCCCCCOc1ccc(CC[C@](N)(CO)COP(=O)(O)O)cc1C(F)(F)F the Tmax was 12 h (healthy human males, plasma; oral, 0.125 mg, day 1, median).
With Cc1cc(NC(=O)[C@H](O)c2cc(F)cc(F)c2)ccc1-c1cnc(N)c(C(=O)NC(C)C)c1 the Cmax was 7800 ng/mL (female nude mouse, plasma; oral, 50 mg/kg, single dose).
For [18F]CCn1cc(COc2ccc(-c3nncnn3)cc2)nn1, “tumour to muscle ratio” read 1.1 (BALB/c nude mouse, LS174T xenograft; intravenous, 1 h, added: CC49-TCO 72 h before).
For CCCCN1C(=O)c2cccc3c(NCCCCN4CCOCC4)ccc(c23)C1=O, “fluorescence quantum yield” read 0.34 (toluene).
Under “Tmax at second steady-state dose”, CN1CCC[C@]1(C)/C=C/S(=O)(=O)NC(=O)Nc1c2c(cc3c1CC(O)C3)CCC2 (stereo partly drawn) is recorded as 3.02 h (human, plasma; oral, 100 mg twice daily of parent drug, day 14, metabolite of dosed drug).
With CC(C)OCCOCc1ccc(OCC(O)CN(N=O)C(C)C)cc1 (stereo not drawn) the fold change was 1.33 (duplex sequencing, item: mutation frequency; NMRI mouse, bone marrow; oral, 29.85 mg/kg/day, 4 weeks; baseline: vehicle).
For [123I]c1ccc2nc(-c3ccc(-n4ccnn4)nc3)cn2c1, the tracer uptake was 0.183 %ID/g (male Wistar rat, liver; intravenous, 4 MBq, 6 h).
C=Cc1c(C)c2cc3nc(c(CC(=O)OCCOCCOCCOC)c4[nH]c(cc5nc(cc1[nH]2)C(C)=C5CC)c(C)c4C(=O)OCCOCCOCCOC)[C@@H](CCC(=O)OCCOCCOCCOC)[C@@H]3C has a compound loss of 100% (LC-MS; methanol-water 9:1; 4 h, pH 2.0).
Under “serious adverse events”, COCC1CN(C2CCN(c3cc(OC)c(Nc4ncc(Br)c(Nc5ccc6c(c5P(C)(C)=O)OCCO6)n4)cc3C)CC2)C1 is recorded as 0% (first-in-human trial; human; oral, 90 mg once daily; treatment-related).
CN1CCC[C@]1(C)/C=C/S(=O)(=O)NC(=O)Nc1c2c(cc3c1CCC3)CC=C2: “Tmax at first steady-state dose” 3 h (human, plasma; oral, 100 mg twice daily of parent drug, day 14, metabolite of dosed drug).
With CN[C@H](CC(C)C)C(=O)N[C@H]1C(=O)N[C@@H](CC(N)=O)C(=O)N[C@H]2C(=O)N[C@H]3C(=O)N[C@H](C(=O)N[C@H](C(=O)N[C@H](CCCNC(=N)N)C(N)=O)c4cc(O)cc(O)c4-c4cc3ccc4O)[C@H](O)c3ccc(c(Cl)c3)Oc3cc2cc(c3O[C@@H]2O[C@H](CO)[C@@H](O)[C@H](O)[C@H]2O[C@H]2C[C@](C)(N)[C@H](O)[C@H](C)O2)Oc2ccc(cc2Cl)[C@H]1O the Cmax was 13100 ng/mL (female CD-1 mouse, plasma; intravenous, 5 mg/kg, single dose).
C=C(NC(=O)c1csc(-c2nc3c(cc2O)-c2nc(cs2)C(=O)NC(C(C)O)C(=O)NC(=C(C)OC)c2nc(cs2)C(=O)NC2c4nc(cs4)C(=O)NC(COC(=O)c4c5c6c(cccc6n4O)COC(=O)C(OC4CC(C)(O)C(N(C)C)C(C)O4)C2OC5)c2nc-3cs2)n1)C(N)=O (stereo not drawn) has a clearance of 2.3 mL/min/kg (cynomolgus monkey, both sexes, plasma; intravenous infusion, 3 mg/kg single dose).
O=C(OC(C(F)(F)F)C(F)(F)F)N1CCC(CNS(=O)(=O)c2ccc(Cl)cc2)CC1 has a Tlast of 8 h (CB17 SCID mice, male, plasma; oral, 10 mg/kg).
CCCC[C@H](NC(=O)CNC(=O)CNC(=O)[C@H](CCCCNC(=O)C(C)c1ccc(CC(C)C)cc1)NC(=O)CN1CCN(CC(=O)O)CCN(CC(=O)O)CCN(CC(=O)O)CC1)C(=O)N[C@H]1CC(=O)NCCCC[C@@H](C(N)=O)NC(=O)[C@H](Cc2c[nH]c3ccccc23)NC(=O)[C@H](CCCNC(=N)N)NC(=O)[C@@H](Cc2ccccc2)NC(=O)[C@H](Cc2c[nH]cn2)NC1=O (stereo partly drawn) [lutetium-177 labelled] gave a tumour-to-tissue ratio of 1.08 (C57 mice, tumour; 2 h; baseline: kidney).
For O=C(NS(=O)(=O)c1cccs1)c1cc2ccccc2n1Cc1ccc(Br)c2ccccc12, the body weight was 25.5 g and 26.7 g and 28.7 g and 28.4 g (KM mouse, chronic hyperuricaemia model; dose not given, day 2).
C[C@@H](C(=O)O)c1ccc(-c2ccccc2)c(F)c1 — result for “relative change of HPLC peak area”: 0.98% (HPLC; solution; concentration not given, 2 h, room temperature).
O=C1C2CC3CC1CC(C(=O)N1CCN(c4ccc([N+](=O)[O-])c5ncccc45)CC1)(C3)C2 gave an AUC(0-t) of 140 ng·h/mL (ICR mice male, plasma; intravenous, 1 mg/kg).
The SUV of O=C(Nc1cnccc1-c1ccc([18F])cc1)c1ccnc(NC(=O)C2CC2)c1 is reported as 7.79 (ex vivo gamma counting; GSK-3β transgenic mice, early-stage, urine; intravenous, 120 min, mean, P-gp inhibitor pretreatment, added: tariquidar 15 mg/kg iv).
CCCC[C@H]1C(=O)N(C)[C@@H](CCCC)C(=O)N[C@@H](CCCCNC(=S)Nc2ccc(CN3CCN(CC(=O)O)CCN(CC(=O)O)CC3)cc2)C(=O)N[C@H](C(=O)NCC(N)=O)CSCC(=O)N[C@@H](Cc2ccc(O)cc2)C(=O)N(C)[C@@H](C)C(=O)N[C@@H](CC(N)=O)C(=O)N2CCC[C@H]2C(=O)N[C@@H](Cc2cnc[nH]2)C(=O)N[C@@H](CCC(=O)O)C(=O)N2C[C@H](O)C[C@H]2C(=O)N[C@@H](Cc2c[nH]c3ccccc23)C(=O)N[C@@H](CO)C(=O)N[C@@H](Cc2cn(CC(=O)O)c3ccccc23)C(=O)N1C [fluorine-18 labelled] has a tumour uptake of 12.6 ± 4.38 %ID/g (BFTC-909 subcutaneous xenograft, NSG mouse, tumour; intravenous, 60 min).
The SUV of O=C(Nc1cnccc1-c1ccc([18F])nc1)c1ccnc(NC(=O)C2CC2)c1 is reported as 1.7 (mice, transgenic, GSK-3β, early-stage, small intestine; intravenous, dose not given, 120 min, added: tariquidar 15 mg/kg i.v. pre-dose).
CC[C@H](C)[C@@H]1NC(=O)[C@H](Cc2ccc(O)cc2)NC(=O)CCCSC[C@@H](C(=O)N(CC(=O)N[C@@H](CC(C)C)C(=O)NCC(N)=O)Cc2ccc(F)cc2)NC(=O)[C@H](CC(N)=O)NC(=O)[C@H](CCC(N)=O)NC1=O: “serious adverse events” 0% (human; intranasal, 300 µg single dose).
C=CC(=O)Nc1cc(Nc2nccc(-c3c[nH]c4ccccc34)n2)c(OC)cc1N(C)CCN(C)C has a recovery of 54% (storage stability; human plasma; 10 d, on ice, LLOQ level).
COc1ccnc(C(=O)N[C@H]2COC(=O)[C@H](Cc3ccccc3)[C@@H](OC(=O)C(C)C)[C@H](C)OC2=O)c1O: “DT50 whole system” 2.37 days (Swiss Lake sand sediment, aerobic dark; 20 °C).
The relative error of C=CC(=O)Nc1cc(Nc2nccc(-c3cn(C4CC4)c4ccccc34)n2)c(OC)cc1N(C)CCNC is reported as 0.6% (long-term storage stability; rat plasma; 1 ng/mL, 3 weeks, -80 °C; baseline: nominal concentration).
CN1C(=O)[C@@H](Cc2ccc(O)c(I)c2)NC(=O)CNC(=O)[C@H](Cc2ccc3ccccc3c2)NC(=O)[C@H](CCCNC(=N)N)NC(=O)[C@H]1CCCNC(=O)c1ccc(CNC(=O)CN2CCN(CC(=O)O)CCN(CC(=O)O)CCN(CC(=O)O)CC2)cc1 [lutetium-177 labelled]: “total absorbed dose” 0.022 mGy/MBq (2; human, extrapolated from mouse, Lower large intestine wall).
